Measurements of several laboratories.
Compare with care: the assays were run in different laboratories. ± marks the error that the study gave. Values after ≈ are worked out from the molar mass of the structure shown.

CC[C@H](C)[C@@H]1NC(=O)[C@H](CCCCN)NC(=O)[C@H](CCCCN)NC(=O)[C@H](Cc2ccc(O)cc2)NC(=O)[C@H](CC(C)C)NC(=O)[C@@H]2CCCN2C(=O)[C@H](C)NC(=O)CNC(=O)CNC(=O)[C@H](CO)NC(=O)CNC(=O)CNC(=O)[C@H](CO)NC(=O)[C@H](CCC(=O)O)NC(=O)[C@H](CC(C)C)NC(=O)[C@H](CC(C)C)NC(=O)[C@H](CCCCN)NC(=O)[C@H](CCCNC(=N)N)NC(=O)[C@H]([C@@H](C)CC)NC(=O)[C@H]([C@@H](C)CC)NC(=O)[C@H](CCCCN)NC(=O)[C@H](CCCCN)NC(=O)[C@H](Cc2ccc(O)cc2)NC(=O)[C@H](CC(C)C)NC(=O)[C@@H]2CCCN2C(=O)CNC(=O)CNC(=O)[C@@H](NC(=O)CN)CSSC[C@@H](C(N)=O)NC(=O)[C@H](CC(C)C)NC(=O)[C@H](CCCCN)NC(=O)[C@H](CCCNC(=N)N)NC(=O)[C@H]([C@@H](C)CC)NC1=O — HC10 (hemolysis; uninfected human erythrocytes; 1 h): 28.2 ± 4.1 µM
CC(C)(CCCC/C=C/CCCCCC(C)(C)C(=O)O)C(=O)O — Cmax (beagle dog, plasma; oral, 5 mg/kg): 39600 ng/mL
CN(C)C(CNC(=O)Nc1cc(C(F)(F)F)ccc1N1CCOCC1)c1ccncc1 (centres unmarked) — serum calcium (mouse, serum; intraperitoneal, 360 mg/kg single dose): 9.1 mg/dL
CC(=O)NCC(=O)N[C@@H](C)C(=O)N[C@@H](CCCCNP(=O)(O)O)C(=O)NCC(=O)NCC(N)=O — first-order rate constant (non-enzymatic hydrolysis; 100 µM, pH 7.8, no enzyme): 5.6e-05 s⁻¹
CN[C@](C)(C[18F])C(=O)O — tissue uptake (SCID mouse SK-OV-3 xenograft, spleen; 15 min, post injection): 8.5 ± 3 %ID/g
NCC(=O)NCC(=O)NCC(=O)NCC(=O)NCC(=O)NCC(=O)NCCCC[C@H](NC(=O)[C@@H]1CCCN1C(=O)[C@@H]1CSSCCC(=O)N[C@@H](Cc2ccc(O)cc2)C(=O)N[C@@H](Cc2ccccc2)C(=O)N[C@@H](CCCC(N)=O)C(=O)N[C@@H](CC(N)=O)C(=O)N1)C(=O)NCC(N)=O — therapeutic index (male Sprague Dawley rats; sc; reference: NOAEL over NOEL): ~100
CC[C@H](C)[C@H](NC(=O)[C@H](CC(=O)O)NC(=O)[C@H](CO)NC(=O)[C@H](CCC(N)=O)NC(=O)[C@H](C)NC(=O)[C@H](CC(=O)O)NC(=O)[C@H](CCC(=O)O)NC(=O)[C@H](Cc1c[nH]cn1)NC(=O)[C@H](Cc1ccc(O)cc1)NC(=O)[C@H](C)NC(=O)[C@H](CC(=O)O)NC(=O)[C@H](CCC(=O)O)NC(=O)[C@H](Cc1c[nH]cn1)NC(=O)[C@H](Cc1ccc(O)cc1)NC(=O)[C@H](C)NC(=O)[C@H](CC(=O)O)NC(=O)[C@H](CCC(=O)O)NC(=O)[C@H](Cc1c[nH]cn1)NC(=O)[C@H](Cc1ccc(O)cc1)NC(=O)[C@H](C)NC(=O)[C@H](CC(=O)O)NC(=O)[C@H](CCC(=O)O)NC(=O)[C@H](Cc1c[nH]cn1)NC(=O)[C@H](Cc1ccc(O)cc1)NC(=O)[C@H](C)NC(=O)[C@H](CC(=O)O)NC(=O)[C@H](CCC(=O)O)NC(=O)[C@H](Cc1c[nH]cn1)NC(=O)[C@@H](N)Cc1ccc(O)cc1)C(=O)N[C@H](C(=O)N[C@@H](C)C(=O)N[C@@H](Cc1c[nH]cn1)C(=O)N[C@@H](CC(C)C)C(=O)N[C@@H](CC(C)C)C(=O)O)C(C)C — ALT (mouse, SN model; dose not given): 178 ± 18 IU/L
CCNc1cc2[o+]c3cc(NCC)c(C)cc3c(-c3ccccc3C(=O)OCCOCC[18F])c2cc1C — tissue uptake (rat, kidney; 15 min): 10.2 ± 3.7 %ID/g
COc1cc2c(cc1OC)C(c1ccc(F)cc1F)N(CCCOc1ccc(CCC(=O)O)cc1)CC2 (centres unmarked) — LD50 (ICR mice, male and female; oral, 1 week): > 2000 mg/kg
CCCCCCCC[C@@H]1NC(=O)[C@@H](Cc2ccccc2)NC(=O)[C@H](CCN)NC(=O)[C@@H](NC(=O)[C@H](CCN)NC(=O)[C@@H](NC(=O)[C@H](CCN)NC(=O)c2ccc(-c3ccccc3)cc2)[C@@H](C)O)CCNC(=O)[C@H]([C@@H](C)O)NC(=O)[C@H](CCN)NC(=O)[C@H](CCN)NC1=O — Vd (rat, plasma; intravenous, single dose): 0.195 to 0.313 L/kg
CC(C)C[C@H](NC(=O)[C@H](CCCCN)NC(=O)[C@H](CC(C)C)NC(=O)[C@H](CC(C)C)NC(=O)[C@H](CCCCN)NC(=O)[C@H](CCCCN)NC(=O)[C@H](CC(C)C)NC(=O)[C@H](CC(C)C)NC(=O)[C@H](CCCCN)NC(=O)[C@H](CC(C)C)NC(=O)[C@H](CC(C)C)NC(=O)[C@H](CCCCN)NC(=O)[C@H](CCCCN)NC(=O)[C@H](CC(C)C)NC(=O)[C@@H](N)CSSC[C@H](N)C(=O)N[C@@H](CC(C)C)C(=O)N[C@@H](CCC(=O)O)C(=O)N[C@@H](Cc1c[nH]cn1)C(=O)N[C@@H](CC(C)C)C(=O)N[C@@H](CC(C)C)C(=O)N[C@@H](CCC(=O)O)C(=O)N[C@@H](Cc1c[nH]cn1)C(=O)N[C@@H](CC(C)C)C(=O)N[C@@H](CCC(=O)O)C(=O)N[C@@H](Cc1c[nH]cn1)C(=O)N[C@@H](CC(C)C)C(=O)N[C@@H](CC(C)C)C(=O)N[C@@H](CCC(=O)O)C(=O)N[C@@H](Cc1c[nH]cn1)C(N)=O)C(N)=O — compound remaining (chemical stability, HPLC; mouse, serum; 8 h): ~79.2%
NC(=O)CC[C@@H](NC(=O)[C@@H](CCC(N)=O)NC(=O)[C@@H](CC(N)=O)NC(=O)[C@@H](CC(N)=O)NC(=O)CNC(=O)Cc1ccc2ccccc2c1)C(=O)N[C@H](CC(N)=O)C(=O)N[C@H](Cc1ccc(OP(=O)(O)O)cc1)C(=O)O — maximum storage modulus (strain sweep rheology; hydrogel; pH 7.4): 184 Pa
Cc1ccc(/C=C/C(=O)O)cc1-c1cc2c(cc1C)C(C)(C)CCC2(C)C — triglycerides (rat, Sprague-Dawley, male, serum; oral, 100 mg/kg, 24 h): 109 ± 16.4 ng/dL
C=C1C(=O)OC2CC(C)C3C=CC(=O)C3(C)C(OC(C)=O)C12 (centres unmarked) — CC50 (propidium iodide flow cytometry; primary splenocytes, BALB/c mouse; 48 h, 10% fetal calf serum): 0.53 ± 0.2 µg/mL (≈ 1.74 µM)
C=Cc1cc(O)cc2nc(-c3ccc(O)c([76Br])c3)oc12 — tissue uptake (female C57BL/6 mouse, lung; 6 h, high dose): 0.08 ± 0.01 %ID/g
N=C(N)NCc1ccc(C(=O)NCCCC[C@H](NC(=O)N[C@@H](CCC(=O)O)C(=O)O)C(=O)O)cc1[131I] — tissue uptake (SCID mouse, PC-3 xenografts, heart; 2 h): 0.4 ± 0.11 %ID/g
CCN(CC)CCOc1ccc(-c2nnn(Cc3ccc(OC)cc3)c2N)cc1 — stability (Sprague-Dawley rats, plasma; 120 min): stable
[11CH3]n1c(=O)n(CCCO)c(=O)c2c1nc(Oc1cccc(OC(F)(F)F)c1)n2Cc1ccc(Cl)cc1 — tracer uptake (ex vivo biodistribution; Sprague Dawley rat, liver; 30 min post injection): 3.03 ± 0.51 %ID/g
CC(C)[C@@H]1NC(=O)[C@H](Cc2ccccc2)NC(=O)[C@H](Cc2ccc(O)cc2)NC(=O)CCSSC[C@@H](C(=O)N2CCC[C@H]2C(=O)N[C@H](CCCNC(=N)N)C(=O)NCC(N)=O)NC(=O)[C@H](CCC(N)=O)NC1=O — GGT (Wistar rat, blood; intravenous, 1 µg/kg single dose, 72 h): 2.8 ± 0.8 IU/L
CC(C)[C@H](NC(=O)[C@@H](NC(=O)[C@H](CCCNC(=N)N)NC(=O)[C@H](CCCNC(=N)N)NC(=O)[C@H](CCCNC(=N)N)NC(=O)[C@H](CCC(N)=O)NC(=O)[C@H](CCCNC(=N)N)NC(=O)[C@H](CCCNC(=N)N)NC(=O)[C@H](CCCCN)NC(=O)[C@H](CCCCN)NC(=O)[C@H](CCCNC(=N)N)NC(=O)CN)[C@@H](C)O)C(=O)N[C@H](C(=O)N[C@@H](CO)C(=O)N1CCC[C@H]1C(=O)O)[C@@H](C)O — LD50 (mouse ICR; intranasal): 454 mg/kg
CC[C@H](C)C(=O)N1CCC(NC(=O)Nc2ccc(OC(F)(F)F)c(F)c2)CC1 — subjects with related TEAE (healthy volunteers; oral, 24 mg single dose): 0%
O=C(O)CC[C@H](NC(=O)O[C@@H](CCCCNC(=O)c1ccc([18F])cc1)C(=O)O)C(=O)O — tissue uptake (mouse, PC-3 PIP/flu xenografts, spleen; 180 min): 0.13 ± 0.08 %ID/g
C[C@@H]1CC[C@H]2[C@@H](C)CO[C@@H]3O[C@@]4(C)CC[C@@H]1[C@]32OO4 — stability accuracy (refers to: compound; rat, plasma; 2.00 ng/mL spiked, 24 h, autosampler at 4 °C): 97.5%
CN[C@@H]1[C@H](O)[C@H](NC)[C@H]2O[C@]3(O)[C@H](O[C@@H]2[C@H]1O)O[C@H](C)C[C@@]3(O)CNCCc1ccc(F)cc1 — maximum tolerated dose (female BALB/c mice; subcutaneous, 3 days, twice daily): 50 mg/kg
CC(Nc1c(-c2c(F)cc(OCCCN(C)C)cc2F)c(Cl)nc2ncnn12)C(C)(C)C (centres unmarked) — maximum tolerated dose (BALB/c mice; intraperitoneal, up to 48 h, single increasing doses): 15 to 20 mg/kg
[11CH3]Oc1ccc(C(=O)Nc2cc(-c3ccc(I)cc3)no2)cc1 — peak SUV (PET imaging; rhesus monkey, brain; intravenous, 2 min): ~2.3
CSCC[C@@H]1NC(=O)[C@@H]2CSSC[C@H](NC(=O)[C@H](CO)NC(=O)[C@H](C)N)C(=O)N[C@@H](CCCNC(=N)N)C(=O)N[C@@H]([C@@H](C)O)C(=O)N3CCC[C@H]3C(=O)N[C@@H](CCCCN)C(=O)N[C@@H](CC(=O)O)C(=O)N[C@H]3CSSC[C@H](NC(=O)[C@H](CCCCN)NC(=O)[C@H](CCCNC(=N)N)NC(=O)[C@H](CC(N)=O)NC1=O)C(=O)N[C@@H](CCCCN)C(=O)N[C@H]1CSSC[C@H](NC(=O)[C@@H]4CCCN4C(=O)[C@H](CC(=O)O)NC(=O)[C@H](C)NC3=O)C(=O)N[C@@H](C)C(=O)N[C@@H](CCCCN)C(=O)N[C@@H](CCC(=O)O)C(=O)N[C@@H]([C@@H](C)O)C(=O)NCC(=O)N[C@@H](CSSC[C@@H](C(N)=O)NC(=O)[C@H](CCCNC(=N)N)NC(=O)[C@H](CC(N)=O)NC1=O)C(=O)N1CCC[C@H]1C(=O)N[C@@H](Cc1ccc(O)cc1)C(=O)NCC(=O)N[C@@H](CCCCN)C(=O)N2 — globulin (DA rat, pristane-induced arthritis, serum; subcutaneous, single 0.1 mg/kg at onset, end of 21-day trial): 1.18 g/dL
CC[C@H](C)[C@H](NC(=O)[C@H](CCC(N)=O)NC(=O)[C@H](CCC(N)=O)NC(=O)[C@@H](NC(=O)[C@H](CO)NC(=O)[C@@H](NC(=O)[C@H](CCCNC(=N)N)NC(=O)[C@H](C)NC(=O)[C@@H](NC(=O)[C@H](CCCNC(=N)N)NC(=O)[C@H](C)NC(=O)[C@H](CCCCN)NC(=O)[C@H](CO)NC(=O)[C@H](C)NC(=O)[C@H](CC(C)C)NC(=O)[C@H](CO)NC(=O)[C@H](C)NC(=O)[C@H](C)NC(=O)[C@H](Cc1ccccc1)NC(=O)[C@H](CCCNC(=N)N)NC(=O)[C@H](Cc1ccc(O)cc1)NC(=O)[C@@H](N)CCSC)C(C)C)[C@@H](C)O)[C@@H](C)O)C(=O)NCC(=O)NCC(=O)N[C@@H](CCCNC(=N)N)C(=O)N[C@@H](CC(C)C)C(=O)N[C@@H](CC(N)=O)C(=O)N[C@@H](Cc1c[nH]c2ccccc12)C(=O)N[C@@H](CO)C(=O)N[C@@H](CCCNC(=N)N)C(=O)N[C@@H](CC(N)=O)C(=O)N[C@@H](Cc1ccc(O)cc1)C(=O)N[C@@H](C)C(=O)N[C@@H](C)C(N)=O — thermodynamic solubility (water; 0.167 min): 12 mM (≈ 45.8 mg/mL)
CC(C)[C@H](NC(=O)CNC(=O)[C@H](CCC(N)=O)NC(=O)[C@H](C)N)C(=O)O — drug-related adverse events (human; intravenous infusion, 90 mg/kg/h, 2 h, relatedness Definitely; reference: subjects): 0%
CC[C@@H]1C[C@]1(NC(=O)[C@@H]1C[C@@]2(CN1C(=O)[C@@H](NC(=O)[C@@H](NC(=O)[C@@H]1CCCCN1C(C)C)C1CCCCC1)C(C)(C)C)C(C)(C)C21CCC1)C(=O)NS(=O)(=O)N1CCCC1 — reduction in variability of Cmax and AUC (human; oral, dose not given, added: ritonavir; reference: without ritonavir): ~25%
F[P-](F)(F)(F)(F)F.F[P-](F)(F)(F)(F)F.[Ru+2].c1ccc(-c2ccccn2)nc1.c1ccc(-c2ccccn2)nc1.c1csc(-c2ccc(-c3ccc(-c4cc5cccnc5c5ncccc45)s3)s2)c1 — molar absorptivity (wavelength 625 nm): < 100 M⁻¹ cm⁻¹
CC(CCC(=O)NCC(=O)O)C1CCC2C3C(O)CC4CC(OC5OC(C(=O)O)C(O)C(O)C5O)CCC4(C)C3CCC12C (centres unmarked) — plasma concentration (human, SLCO1B1 *5/*14, plasma; geometric mean, sex-adjusted): 39.8 ng/mL

A few entries again:
C=C1C(=O)OC2CC(C)C3C=CC(=O)C3(C)C(OC(C)=O)C12 (centres unmarked) — CC50 (propidium iodide flow cytometry; primary splenocytes, BALB/c mouse; 48 h, 10% fetal calf serum): 0.53 ± 0.2 µg/mL (≈ 1.74 µM)
CCN(CC)CCOc1ccc(-c2nnn(Cc3ccc(OC)cc3)c2N)cc1 — stability (Sprague-Dawley rats, plasma; 120 min): stable
